Experimental data collected from several papers.
Lines come from different studies, so protocols differ. Numbers after ± are the reported error.
CDK2 with cyclin A: Cyclin-dependent kinase 2, with cyclin A (CDK2, Homo sapiens, UniProt P24941)
HDAC8: Histone deacetylase 8 (HDAC8, Homo sapiens, UniProt Q9BY41)
Genome polyprotein protease: Genome polyprotein, protease (Hepatitis C virus genotype 1b, UniProt O92972)
UniProt O92972, sequence (whole entry, looked up): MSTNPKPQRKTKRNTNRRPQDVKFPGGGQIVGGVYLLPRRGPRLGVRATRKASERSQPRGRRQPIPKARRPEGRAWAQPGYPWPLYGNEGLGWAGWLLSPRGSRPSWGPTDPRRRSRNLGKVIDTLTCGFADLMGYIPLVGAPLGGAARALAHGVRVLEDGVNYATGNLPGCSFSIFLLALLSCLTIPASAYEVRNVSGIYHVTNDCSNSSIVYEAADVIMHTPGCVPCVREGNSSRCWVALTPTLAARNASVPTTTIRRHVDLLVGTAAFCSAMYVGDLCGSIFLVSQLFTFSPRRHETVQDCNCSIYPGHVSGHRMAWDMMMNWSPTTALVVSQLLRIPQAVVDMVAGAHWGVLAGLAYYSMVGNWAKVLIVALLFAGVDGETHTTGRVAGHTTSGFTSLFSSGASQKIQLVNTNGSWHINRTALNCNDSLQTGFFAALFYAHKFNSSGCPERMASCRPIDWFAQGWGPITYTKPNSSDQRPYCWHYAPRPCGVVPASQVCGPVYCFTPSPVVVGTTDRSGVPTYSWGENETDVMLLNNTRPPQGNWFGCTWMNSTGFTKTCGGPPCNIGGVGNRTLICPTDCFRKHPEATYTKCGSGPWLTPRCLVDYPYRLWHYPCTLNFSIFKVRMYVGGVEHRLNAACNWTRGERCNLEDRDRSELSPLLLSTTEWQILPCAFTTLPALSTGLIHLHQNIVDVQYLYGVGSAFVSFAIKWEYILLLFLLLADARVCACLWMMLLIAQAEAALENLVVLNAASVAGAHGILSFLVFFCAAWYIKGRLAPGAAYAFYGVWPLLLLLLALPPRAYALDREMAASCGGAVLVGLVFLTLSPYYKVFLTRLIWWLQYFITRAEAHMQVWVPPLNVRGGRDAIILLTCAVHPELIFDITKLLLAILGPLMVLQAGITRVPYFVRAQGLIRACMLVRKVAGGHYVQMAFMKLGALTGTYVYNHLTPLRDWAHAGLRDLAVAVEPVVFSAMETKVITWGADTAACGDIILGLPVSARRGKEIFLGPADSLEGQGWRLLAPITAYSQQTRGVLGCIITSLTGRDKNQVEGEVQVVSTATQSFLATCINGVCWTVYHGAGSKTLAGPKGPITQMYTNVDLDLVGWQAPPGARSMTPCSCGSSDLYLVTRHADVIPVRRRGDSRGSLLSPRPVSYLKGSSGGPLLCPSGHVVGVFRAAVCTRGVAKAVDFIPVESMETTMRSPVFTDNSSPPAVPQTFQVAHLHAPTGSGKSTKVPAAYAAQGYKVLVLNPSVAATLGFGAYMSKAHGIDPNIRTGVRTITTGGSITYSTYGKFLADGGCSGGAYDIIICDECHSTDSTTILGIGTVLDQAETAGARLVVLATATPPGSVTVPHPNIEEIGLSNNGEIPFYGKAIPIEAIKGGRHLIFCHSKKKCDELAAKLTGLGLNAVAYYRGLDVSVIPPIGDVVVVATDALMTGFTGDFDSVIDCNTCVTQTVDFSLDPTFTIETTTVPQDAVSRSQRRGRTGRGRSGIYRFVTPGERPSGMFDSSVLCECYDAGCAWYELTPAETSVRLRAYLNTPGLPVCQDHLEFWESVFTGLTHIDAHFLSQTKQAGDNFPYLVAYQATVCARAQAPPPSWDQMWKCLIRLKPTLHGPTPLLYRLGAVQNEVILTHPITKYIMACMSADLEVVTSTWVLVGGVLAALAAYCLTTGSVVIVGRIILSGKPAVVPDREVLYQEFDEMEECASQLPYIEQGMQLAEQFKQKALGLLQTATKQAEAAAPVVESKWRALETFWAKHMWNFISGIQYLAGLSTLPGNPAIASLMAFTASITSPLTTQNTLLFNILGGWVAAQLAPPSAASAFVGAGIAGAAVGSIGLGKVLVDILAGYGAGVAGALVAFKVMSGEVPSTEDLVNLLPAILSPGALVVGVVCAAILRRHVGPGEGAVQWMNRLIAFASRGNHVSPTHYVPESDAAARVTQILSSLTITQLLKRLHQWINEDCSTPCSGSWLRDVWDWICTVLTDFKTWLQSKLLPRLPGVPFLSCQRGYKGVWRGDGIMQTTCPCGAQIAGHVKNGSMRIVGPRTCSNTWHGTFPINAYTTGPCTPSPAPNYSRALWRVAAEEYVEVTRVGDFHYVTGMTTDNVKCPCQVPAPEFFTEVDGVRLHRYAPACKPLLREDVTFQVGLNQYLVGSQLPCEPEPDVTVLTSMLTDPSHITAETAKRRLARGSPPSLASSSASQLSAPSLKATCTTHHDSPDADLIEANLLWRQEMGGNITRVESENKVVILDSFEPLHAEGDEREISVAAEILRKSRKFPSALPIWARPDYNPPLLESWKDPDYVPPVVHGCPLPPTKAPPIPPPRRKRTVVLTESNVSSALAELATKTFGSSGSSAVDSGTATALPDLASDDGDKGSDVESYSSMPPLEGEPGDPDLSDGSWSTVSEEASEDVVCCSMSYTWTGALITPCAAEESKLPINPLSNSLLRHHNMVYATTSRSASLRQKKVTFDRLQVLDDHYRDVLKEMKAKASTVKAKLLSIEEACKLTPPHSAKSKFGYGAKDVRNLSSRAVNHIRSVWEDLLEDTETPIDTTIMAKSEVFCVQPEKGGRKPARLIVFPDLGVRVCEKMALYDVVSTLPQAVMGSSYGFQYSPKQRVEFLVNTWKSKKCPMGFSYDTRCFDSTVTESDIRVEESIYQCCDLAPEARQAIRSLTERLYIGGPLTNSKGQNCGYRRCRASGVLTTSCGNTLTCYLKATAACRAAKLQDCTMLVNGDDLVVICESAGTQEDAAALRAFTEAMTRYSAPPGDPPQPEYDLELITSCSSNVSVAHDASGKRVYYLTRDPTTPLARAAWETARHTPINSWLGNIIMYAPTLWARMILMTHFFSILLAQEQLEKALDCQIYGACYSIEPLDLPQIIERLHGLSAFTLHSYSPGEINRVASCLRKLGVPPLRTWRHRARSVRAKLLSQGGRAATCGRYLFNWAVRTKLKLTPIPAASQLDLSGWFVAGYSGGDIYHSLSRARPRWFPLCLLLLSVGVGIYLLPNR
PIK3CB: Phosphatidylinositol 4,5-bisphosphate 3-kinase catalytic subunit beta isoform (PIK3CB, Homo sapiens, UniProt P42338)
UniProt P42338, sequence (whole entry, looked up): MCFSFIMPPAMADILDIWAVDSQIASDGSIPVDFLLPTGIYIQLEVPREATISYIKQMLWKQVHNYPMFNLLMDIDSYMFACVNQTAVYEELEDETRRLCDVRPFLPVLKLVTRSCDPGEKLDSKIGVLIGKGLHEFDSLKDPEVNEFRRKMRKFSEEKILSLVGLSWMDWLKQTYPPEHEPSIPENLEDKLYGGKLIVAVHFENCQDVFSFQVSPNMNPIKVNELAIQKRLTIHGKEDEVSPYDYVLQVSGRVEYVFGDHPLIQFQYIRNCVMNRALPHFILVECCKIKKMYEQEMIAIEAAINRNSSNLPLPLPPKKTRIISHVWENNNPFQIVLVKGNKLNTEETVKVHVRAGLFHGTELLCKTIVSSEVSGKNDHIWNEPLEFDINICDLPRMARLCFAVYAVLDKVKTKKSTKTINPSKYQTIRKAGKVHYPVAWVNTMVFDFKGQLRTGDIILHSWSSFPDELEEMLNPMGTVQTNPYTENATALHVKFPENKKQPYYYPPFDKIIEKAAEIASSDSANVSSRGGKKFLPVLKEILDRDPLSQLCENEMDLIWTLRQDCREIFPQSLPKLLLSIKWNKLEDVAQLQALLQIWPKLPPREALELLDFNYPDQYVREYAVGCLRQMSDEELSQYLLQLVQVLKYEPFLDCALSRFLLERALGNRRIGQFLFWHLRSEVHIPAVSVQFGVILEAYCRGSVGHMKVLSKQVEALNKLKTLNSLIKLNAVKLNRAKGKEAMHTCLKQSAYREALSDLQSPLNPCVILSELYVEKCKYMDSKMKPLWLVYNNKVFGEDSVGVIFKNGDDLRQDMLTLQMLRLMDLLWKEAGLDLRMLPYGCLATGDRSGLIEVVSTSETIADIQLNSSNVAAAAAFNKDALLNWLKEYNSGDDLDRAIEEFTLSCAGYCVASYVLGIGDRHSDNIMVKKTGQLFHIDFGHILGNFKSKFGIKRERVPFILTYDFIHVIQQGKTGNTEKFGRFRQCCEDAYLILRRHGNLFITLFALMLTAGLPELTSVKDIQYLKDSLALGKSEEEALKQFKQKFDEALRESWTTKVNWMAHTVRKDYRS
PARP1: Poly [ADP-ribose] polymerase 1 (PARP1, Homo sapiens, UniProt P09874)
UniProt P09874, sequence (whole entry, looked up): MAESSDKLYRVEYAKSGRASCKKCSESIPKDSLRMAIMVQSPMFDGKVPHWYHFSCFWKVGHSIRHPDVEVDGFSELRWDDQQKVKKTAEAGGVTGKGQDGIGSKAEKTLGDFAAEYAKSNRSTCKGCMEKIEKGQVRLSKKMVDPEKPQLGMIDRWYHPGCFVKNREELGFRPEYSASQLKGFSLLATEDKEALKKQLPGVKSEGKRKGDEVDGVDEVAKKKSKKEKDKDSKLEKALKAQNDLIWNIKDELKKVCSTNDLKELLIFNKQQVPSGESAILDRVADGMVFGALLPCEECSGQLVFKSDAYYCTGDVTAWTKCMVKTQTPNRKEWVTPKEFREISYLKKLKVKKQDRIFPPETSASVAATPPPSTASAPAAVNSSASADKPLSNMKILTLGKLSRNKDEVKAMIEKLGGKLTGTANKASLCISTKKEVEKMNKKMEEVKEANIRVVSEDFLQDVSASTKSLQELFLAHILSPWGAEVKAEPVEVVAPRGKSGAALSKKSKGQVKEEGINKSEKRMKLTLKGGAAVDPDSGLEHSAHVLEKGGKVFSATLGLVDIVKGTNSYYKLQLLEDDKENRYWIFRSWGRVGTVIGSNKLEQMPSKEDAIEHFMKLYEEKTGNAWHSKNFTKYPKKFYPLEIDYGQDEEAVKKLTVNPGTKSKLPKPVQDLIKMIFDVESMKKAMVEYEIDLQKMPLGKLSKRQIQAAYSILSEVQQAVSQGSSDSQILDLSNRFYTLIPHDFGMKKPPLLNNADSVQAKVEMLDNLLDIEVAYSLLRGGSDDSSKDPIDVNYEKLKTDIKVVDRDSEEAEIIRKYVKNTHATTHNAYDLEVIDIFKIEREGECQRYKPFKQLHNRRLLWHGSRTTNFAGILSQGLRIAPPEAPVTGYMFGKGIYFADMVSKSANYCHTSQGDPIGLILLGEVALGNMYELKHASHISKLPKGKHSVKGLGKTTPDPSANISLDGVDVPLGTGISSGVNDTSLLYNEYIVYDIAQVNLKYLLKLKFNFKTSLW
SLC10A1: Hepatic sodium/bile acid cotransporter (SLC10A1, Homo sapiens, UniProt Q14973)

Compound | target | test | test system | setting | IC50
CC(=O)Nc1cc(Cc2ccccc2)[nH]n1 | CDK2 with cyclin A | radiometric | – | with: 1 µM ATP | 4000 nM
C=CC(=O)N1C[C@H](C)N(c2nc(OC[C@@]34CCCN3C[C@H](F)C4)nc3c(F)c(-c4ccc(F)c5sc(N)c(C#N)c45)c(C(F)(F)F)cc23)C[C@H]1C | GTPase KRas, GppNHp; with RAF1 RBD (KRAS, Homo sapiens, UniProt P01116, Q61R) | – | – | – | 18400 ± 2900 nM
CC(=O)N1c2ccc(-c3ccc(CNC(=O)c4cn5cc(-c6cnc(N)nc6)nc(N6CCOCC6)c5n4)cc3)cc2CC[C@@H]1C | PRKDC (Homo sapiens, UniProt P78527) | enzyme activity, inhibitor, radiometric | – | – | ~500 nM
Cc1c(COc2cc(OCc3cccc(C#N)c3)c(CNCCO)cc2Cl)cccc1-c1cccc(OCCCCCCC(=O)NO)c1 | HDAC8 | enzyme activity, inhibitor | – | – | > 1000 nM
CCn1nc(Cl)c2c1-c1cnc(N)c(c1)O[C@H](C)c1cc(F)ccc1-c1nn(C)cc1C2 | NTRK3 (Homo sapiens, UniProt Q16288) | enzyme activity, inhibitor, radiometric | – | – | 138 nM
O=C(/C=C/c1cccc(OS(=O)(=O)Oc2ccc(Br)cc2)c1)NO | Histone deacetylase 3, with NCoR2 DAD (HDAC3, Homo sapiens, UniProt O15379) | enzyme activity, inhibitor, fluorogenic | – | with: substrate 20 µM | 93 nM
CC(C)(C)n1ncc2c(=O)n(Cc3cccc(F)c3)c(NCc3ccc(F)cn3)nc21 | PDE5A (Homo sapiens, UniProt O76074) | enzyme activity, inhibitor | – | – | 192 nM
O=C(Cc1ccc(OCc2ccccc2)cc1)NC1(C(=O)O)CCN(C(=O)c2ccc(-c3cccc(Cl)c3)cc2)CC1 | LPAR3 (Homo sapiens, UniProt Q9UBY5) | antagonist, GloSensor cAMP | – | – | > 10000 nM
CCCCn1c(=S)[nH]c2cc3ccccc3cc2c1=O | Genome polyprotein protease | enzyme activity, inhibitor, FRET | – | – | 9330 nM
Cc1nc(Nc2ccc3c(c2)/C(=C/c2cn(C)c4ccccc24)C(=O)N3C)c2ccccc2n1 | PIK3CB | enzyme activity, inhibitor, ADP detection | – | – | 96.9 nM
CCN(CC)CC(=O)Nc1cccc(-n2cc(-c3ccc4ccc(-c5cn(-c6cccc(NC(=O)CN(CC)CC)c6)nn5)cc4c3)nn2)c1 | PKN2 (Homo sapiens, UniProt Q16513) | enzyme activity, inhibitor | – | – | > 10000 nM
NC(=O)c1cccc2cn(-c3cc(F)c(C4CCCC(CCO)C4)c(F)c3)nc12 (stereo not drawn) | PARP1 | enzyme activity, inhibitor, radiometric | – | – | 0.69 nM
COc1ccccc1/C=C1\C(=O)Nc2ccc(Nc3nc(C)nc4ccccc34)cc21 | PIK3CB | enzyme activity, inhibitor, ADP detection | – | – | 176 nM
O=C(Nc1cc(-c2ccc(Cl)cc2)[nH]n1)c1cccs1 | CDK2 with cyclin A | radiometric | – | with: 1 µM ATP | 3500 nM
CC(C)(O)c1ccc(N2Cc3c(ccnc3-c3ccc(F)cc3OCC(F)(F)F)C2=O)cc1 | UGCG (Homo sapiens, UniProt Q16739) | enzyme activity, inhibitor, RapidFire mass spectrometry | – | with: UDP-glucose 3 mM | 63 nM
O=C1/C(=N\c2ccc(Cl)cc2Br)c2ccccc2N1Cc1cccc(Cl)c1 (mixture of isomers) | PIK3CB | enzyme activity, inhibitor, ADP detection | – | – | 159 nM
Cc1nn(-c2cccc(N)c2)c(=O)c2cnc(Nc3ccc(N4CCNCC4)cc3)nc12 | Tyrosine-protein kinase Lyn, isoform B (LYN, Homo sapiens, UniProt P07948) | inhibitor, SelectScreen kinase | – | – | 1020 nM
Cn1ncc2cc(-c3cncc(Cl)c3N3CCC4(CCNC4=O)CC3)ccc21 | Cyclin-dependent kinase 8, with cyclin C (CDK8, Homo sapiens, UniProt P49336) | – | – | – | 5 nM
O=C1Nc2c(Br)cccc2/C1=C1/Nc2ccccc2C1=NO | TYK2 (Homo sapiens, UniProt P29597) | – | – | – | > 10000 nM
C1=[N+]2CCC[N+]3=Cc4ccc5[n]4[Au-]23[n]2c1ccc2-c1nc2ccccc2nc1-5.F[P-](F)(F)(F)(F)F | DNA topoisomerase 1 (TOP1, Homo sapiens, UniProt P11387) | enzyme activity, inhibitor | – | – | 8000 nM
Cc1cnc(C(=O)N[C@H]2CCCCC/C=C\[C@@H]3C[C@@]3(C(=O)NS(=O)(=O)C3CC3)NC(=O)[C@@H]3C[C@@H](Oc4nc5ccccc5c5ccccc45)CN3C2=O)cn1 | Cytochrome P450 3A7 (CYP3A7, Homo sapiens, UniProt P24462) | inhibitor, LC-MS/MS, DHEA-S formation, 16α-hydroxy | recombinant enzyme | 5 min, no preincubation, with: DHEA-S 5 µM | 11600 nM

Compound | target | test | test system | setting | IC50
O=C1/C(=N\c2ccc(Cl)cc2)c2ccccc2N1Cc1ccccc1 | PIK3CB | enzyme activity, inhibitor, ADP detection | – | – | 62.2 nM
O=c1c(-c2ccc(Cl)c(CN3CCOCC3)c2)coc2cc(O)ccc12 | HSD3B1 (Homo sapiens, UniProt P14060) | DHEA metabolism, inhibitor | VCaP | with: [3H]-DHEA | 5.86 nM
CCCC(=O)OC1CCC2(C)C(CCC3(C)C2CC=C2C4C(C)C(C)CCC4(C(=O)O)CCC23C)C1(C)C (stereo not drawn) | UGT1A8 (Homo sapiens, UniProt Q9HAW9) | enzyme activity, inhibitor | – | – | > 100000 nM
O=C1/C(=N\c2cccc(Cl)c2)c2ccccc2N1Cc1ccccc1 | PIK3CB | enzyme activity, inhibitor, ADP detection | – | – | 126 nM
Cc1cc(C)c(S(=O)(=O)N(CC(=O)O)c2ccc(Nc3ccnc(N4CCCC4)n3)cc2)c(C)c1 | AKT1 (Homo sapiens, UniProt P31749) | enzyme activity, inhibitor | – | – | > 100000 nM
O=C1/C(=N\c2ccc(Cl)cc2Br)c2ccccc2N1C(=O)c1ccccc1 | PIK3CB | enzyme activity, inhibitor, ADP detection | – | – | 605 nM
C[C@@H](O)[C@H](NC(=O)[C@@H]1CSSC[C@@H](NC(=O)[C@H](Cc2ccccc2)NC(N)=O)C(=O)N[C@@H](Cc2ccc(NC(N)=O)cc2)C(=O)N[C@H](Cc2c[nH]c3ccccc23)C(=O)N[C@@H](CCCCN)C(=O)N[C@@H]([C@@H](C)O)C(=O)N1)C(N)=O | SSTR5 (Homo sapiens, UniProt P35346) | ligand displacement, radioligand | – | – | > 1000 nM
C[C@H](CCC(=O)O)[C@H]1CC[C@H]2[C@@H]3[C@H](O)C[C@@H]4C[C@H](O)CC[C@]4(C)[C@H]3CC[C@]12C | SLC10A1 | preS1 binding, inhibitor, fluorescence | HepG2-hNTCP-C4 | with: myristoylated preS1(2-48)-TAMRA | 37900 nM
O=C(NO)c1cncc(OS(=O)(=O)Oc2ccc(Oc3ccccc3)cc2)c1 | HDAC8 | enzyme activity, inhibitor, fluorescence | – | – | 1880 nM
O=S(=O)(O)c1ccc(N=Nc2ccc(O)cc2O)cc1 | Bcl-2-related protein A1 (Mus musculus, UniProt Q07440, C113S/P104K) | ligand displacement, FP | – | – | 79800 nM
O=c1c2cc3ccccc3cc2[nH]c(=S)n1Cc1ccccc1 | Genome polyprotein protease | enzyme activity, inhibitor, FRET | – | – | 37200 nM
COc1cc(-n2cc3cc(F)cc(C(N)=O)c3n2)cc(Cl)c1C1CCCC(O)(CCO)C1 (stereo not drawn) | PARP1 | enzyme activity, inhibitor, radiometric | – | – | 0.36 nM
C[C@H](CCC(=O)NCCS(=O)(=O)O)[C@H]1CC[C@H]2[C@@H]3CC[C@@H]4C[C@H](O)CC[C@]4(C)[C@H]3C[C@H](O)[C@]12C | SLC10A1 | – | – | – | 24900 nM
OC(CN1C2=NCCCN2c2ccccc21)c1ccc(Br)cc1 (stereo not drawn) | CatSper channel complex (Homo sapiens, UniProt Q7RTX7+Q86XQ3+Q8NEC5+Q96P56) | calcium influx, inhibitor, FLIPR | human sperm | with: high pH, high potassium | 18000 nM
O=C(/C=C/c1ccccc1)Oc1ccc2c(c1)O/C(=C\C=C\c1ccccc1)C2=O | PIK3C3 (Homo sapiens, UniProt Q8NEB9) | enzyme activity, inhibitor, ADP detection | – | – | 7.58 nM
O=C(NS(=O)(=O)c1cccs1)c1cc2ccccc2n1Cc1ccc(Br)c2ccccc12 | Solute carrier family 2, facilitated glucose transporter member 9 (Mus musculus, UniProt Q3T9X0) | transport, inhibitor | – | – | 11000 ± 1330 nM
Fc1ccc(Nc2nc(NC3CCCCC3)c3cc(Br)ccc3n2)cc1F | ADRB2 (Homo sapiens, UniProt P07550) | cAMP production, antagonist, GloSensor | – | with: isoproterenol 1 µM | 28000 ± 10000 nM
Cc1ccc2c(c1)nc(NC(=O)c1cccc(C(F)(F)F)c1)n2[C@H]1CC[C@H](N)CC1 | CDC2-like kinase 1 (Trypanosoma brucei brucei, UniProt Q382U0) | enzyme activity, inhibitor, ADP-Glo | – | – | > 20000 nM
CC(C)C[C@H](NC(=O)[C@H](Cc1ccc(CN)cc1)NC(=O)[C@H](Cc1ccccc1)N=[N+]=[N-])C(=O)N[C@@H](CCC1CCCCC1)C(=O)[C@@]1(C)CO1 | PSMB6 (Homo sapiens, UniProt P28072) | competitive ABPP | Raji cell lysate | – | > 10000 nM
CC1Cc2ccccc2N1C(=O)CN1CCN(Cc2ccccc2)CC1 (stereo not drawn) | DRD4 (Homo sapiens, UniProt P21917) | antagonist | – | – | 631 nM
CCCOC(=O)N1c2cc(CNC)ccc2[C@H](NC(=O)C(=O)Nc2ccc(Cl)c(F)c2)[C@H]1CNC(=N)N | env (Human immunodeficiency virus 1, UniProt Q75760) | HIV-1 infection | Cf2Th-CD4/CCR5 cells | 48 h | 1380 nM
